Experimental data pooled from the literature.
Parts stem from different laboratories: compare values within a part only. Changes are numbered by the printed parent chain.

Set 1
Target: CCNA1, cyclin fold, Cln2 fusion (human)
Method: yeast growth competition, sequencing
Medium: yeast
Notes: weak parent motif
Relative to: not given
Reading: higher = stronger binding
Endpoint: normalised enrichment score
Starting sequence: CDC25A docking peptide (human); PPHRRRLLFACSP; partner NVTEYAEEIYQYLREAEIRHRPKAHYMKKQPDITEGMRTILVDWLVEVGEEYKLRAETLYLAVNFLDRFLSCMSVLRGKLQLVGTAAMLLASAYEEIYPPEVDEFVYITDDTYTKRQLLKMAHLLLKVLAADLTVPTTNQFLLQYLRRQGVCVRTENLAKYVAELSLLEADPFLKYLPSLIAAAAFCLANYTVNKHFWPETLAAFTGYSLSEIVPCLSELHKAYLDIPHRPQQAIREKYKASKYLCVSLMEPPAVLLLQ
Substitution = P2V; value = 0.354
Substitution = C11N; value = 0.107
Substitution = L8R; value = 0.174
Substitution = L7R; value = 0.288
Substitution = R6L; value = 0.156
Substitution = S12A; value = 0.158
Substitution = L8W; value = 0.203
Substitution = R5G; value = 0.543
Substitution = S12P; value = 0.491
Substitution = L7W; value = 0.165
Substitution = P13R; value = 0.211
Substitution = P2A; value = 0.156
Substitution = R6H; value = 0.252
Substitution = R4A; value = 0.196
Substitution = L7M; value = 0.166
Substitution = C11E; value = 0.245
Substitution = P1T; value = 0.237
Substitution = F9M; value = 0.275
Substitution = L8S; value = 0.0813
Substitution = L8M; value = 0.244
Substitution = R4F; value = 0.388
Substitution = R4Y; value = 0.333
Substitution = P2M; value = 0.488
Substitution = C11G; value = 0.262
Substitution = P13Y; value = 0.181

Set 2
Target: Histone acetyltransferase KAT6A, both winged helices, GST fusion (KAT6A, Homo sapiens, UniProt Q92794, residues 1-181)
Method: protein binding microarray
Molecule type: double-stranded DNA, one strand shown
Medium: in vitro
Tested at: not given
Notes: 8-mer, flanks averaged, mean of 2 arrays, mostly near background
Relative to: not given
Reading: higher = stronger binding
Endpoint: E-score
Target sequence (chain): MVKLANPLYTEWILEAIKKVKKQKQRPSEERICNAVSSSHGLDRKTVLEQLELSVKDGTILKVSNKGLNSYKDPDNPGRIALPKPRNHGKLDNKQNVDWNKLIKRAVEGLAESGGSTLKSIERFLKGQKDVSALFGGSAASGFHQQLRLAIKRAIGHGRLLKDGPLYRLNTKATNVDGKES
Oligonucleotide = TACGATGA; value = -0.048
Oligonucleotide = CGCTGCAC; value = 0.243
Oligonucleotide = ATGTGTCC; value = 0.067
Oligonucleotide = ACCCTAAA; value = -0.156
Oligonucleotide = ATATACCA; value = -0.184
Oligonucleotide = CCTCTTCA; value = -0.125
Oligonucleotide = CTGATTCA; value = -0.114
Oligonucleotide = ATTCGCGG; value = 0.282
Oligonucleotide = AACACCCT; value = -0.0916
Oligonucleotide = GATATTTA; value = -0.0591
Oligonucleotide = CCATGGGA; value = -0.143
Oligonucleotide = ATCACCAC; value = -0.0292
Oligonucleotide = CTTCTCGC; value = 0.108
Oligonucleotide = CATAACAG; value = -0.167
Oligonucleotide = AGGACGAC; value = -0.0685
Oligonucleotide = GCCGTAAC; value = 0.31

Set 3
Target: Interferon regulatory factor 5, full length, phosphomimetic (IRF5, Homo sapiens, UniProt Q13568-2, residues 1-514, S451D/S453D/S456D/S462D)
Method: protein-binding microarray
Molecule type: double-stranded DNA, one strand shown
Medium: in vitro
Tested at: 940 nM top
Notes: 60-bp whole probe
With: salmon DNA 0.4 mg/ml
Relative to: random background probes
Reading: higher = stronger binding
Endpoint: fitted relative affinity
Shared flanks, not repeated: GCCTAGCAC … GTCTTGATTCGCTTGACGCTGCTG
Oligonucleotide = GACGCTTTCGGGTATCGAGACGTGCTA; value = 4.09 z-score
Oligonucleotide = TACGGTATCGGGTATCGGGACGTGCTA; value = 5.09 z-score
Oligonucleotide = TCATGTCTCAGAGTCCTACTGTGCTAG; value = 0.204 z-score
Oligonucleotide = TTAGAACTGAATCTCGATTAGTGCTAG; value = 0.453 z-score
Oligonucleotide = CTCTCCATGTGTTTAAAGACGTGCTAG; value = 0.24 z-score
Oligonucleotide = TGAGAACTGGGGTATCGATTAGTGCTA; value = 3.1 z-score
Oligonucleotide = CCCTAGGGGCTCTCAGAGATGTGCTAG; value = -0.708 z-score
Oligonucleotide = GACGGTTTCCACTATCGGGACGTGCTA; value = 1.24 z-score
Oligonucleotide = TTAGGTCTCCTACTGTTTTAGTGCTAG; value = 0.414 z-score
Oligonucleotide = TACGGTCTCCTTATCCTGACGTGCTAG; value = 0.529 z-score
Oligonucleotide = TTAAGTATCGGGTATCGGTTAGTGCTA; value = 6.92 z-score
Oligonucleotide = TTAGAACTGAGACTGGACTAGTGCTAG; value = -0.182 z-score
Oligonucleotide = TTTTTTTTCTTTAAAAGTGAGTGCTAG; value = 0.378 z-score
Oligonucleotide = CGATTACAGCTAGGTAGTGGGTGCTAG; value = -0.015 z-score
Oligonucleotide = GACGGGTTCGACACTGGGGACGTGCTA; value = -0.407 z-score
Oligonucleotide = GAGGAACTGAGACTGGAGACGTGCTAG; value = -0.684 z-score
Oligonucleotide = TTAGGACTGCGTATCGGTTAGTGCTAG; value = 1.13 z-score
Oligonucleotide = GACGAGCTGGGGTTTCGAGACGTGCTA; value = 2.29 z-score
Oligonucleotide = GACGGACTGGACTATCAGGACGTGCTA; value = -0.216 z-score
Oligonucleotide = TTGGATATCGGGTATCGATTAGTGCTA; value = 2.65 z-score
Oligonucleotide = TTAAATATCGGGTTTCGATTAGTGCTA; value = 5.48 z-score
Oligonucleotide = TCACTTCTGTATTCATGACTGTGCTAG; value = 1.05 z-score
Oligonucleotide = TTCGAACTGAGTATCGATTAGTGCTAG; value = 4.87 z-score
Oligonucleotide = TTTGGTTCCCTTTTCCTTTAGTGCTAG; value = 1.06 z-score
Oligonucleotide = TACGATTTCGGGTATCGAGACGTGCTA; value = 1.93 z-score

Set 4
Target: RING finger protein unkempt homolog, zinc fingers 1-6, GST-SBP tag (UNK, Homo sapiens, UniProt Q9C0B0, residues 30-357)
Sequence of UniProt Q9C0B0 (30-357, looked up): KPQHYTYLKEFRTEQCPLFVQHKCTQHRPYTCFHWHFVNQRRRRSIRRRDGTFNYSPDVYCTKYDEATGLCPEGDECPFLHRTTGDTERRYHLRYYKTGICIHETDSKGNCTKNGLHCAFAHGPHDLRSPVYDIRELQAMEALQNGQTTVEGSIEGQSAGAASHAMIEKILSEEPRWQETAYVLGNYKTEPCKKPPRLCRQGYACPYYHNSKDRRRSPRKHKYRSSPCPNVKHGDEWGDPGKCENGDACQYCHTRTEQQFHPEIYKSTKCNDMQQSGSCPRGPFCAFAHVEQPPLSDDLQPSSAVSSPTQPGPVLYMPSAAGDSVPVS
Method: RNA Bind-n-Seq
Molecule type: RNA
Medium: in vitro
Tested at: not given
Notes: RNA with constant flanks, human and mouse sites, ends assumed
Relative to: input RNA pool
Reading: higher = stronger binding
Endpoint: bound/input enrichment
Shared flanks, not repeated: GGGAGUUCUACAGUCCGACGAUC … CAACAGAGGAUUGAGCAUCA
Oligonucleotide = GGAGAUAACCAGCCACUUCAUAUUUUUGACAAACUCCAUGUAUCCCCUCUUACUCAAAUAAGACUAAACCCAGUUUACAAAGCAGUGGUGUCUUCUGACAAAUCCGGGAUGAUUGAGUAC; value = 0.296 ratio
Oligonucleotide = GAUCCUGAAUUUGCAGAAGAUCCAAGAAUGGUGAAUGUCGACCUCAUCACUCUUUCUUACACUUUUUUUGAAGCAAAGGAAGGGCACAAGUUGCCAGUUCCAGGCUAUAAUUGAAGCAGC; value = 0.0884 ratio
Oligonucleotide = GAAGCAAAUGUCCAUUUCCAAAGCAGCUGGCAUAUCAUCAGUACCACGGCUUUAUUCUUCUAUAGUAAGUCUCCCCUCUUUACUGGGGAGAAAAAAAAUUCUCACUGGAGAAACCCUUAG; value = 3.52 ratio
Oligonucleotide = AGAAAAUAAAUGAUUUUUAAGUUAUGUCUAUUAAUUUGACUCUAGAUAUAUAUAUUUACUUCCUUAAUAAUGCAAGAAGUCUUUGUGGGAAACAGAGAAGCAAACAAUUGCAUUUUGUGU; value = 3.2 ratio
Oligonucleotide = GUAGCGCUUGCAGCAUGGCUGACCAACUGACUGAAGAGCAGAUUGCAGAAUUCAAAGAAGCUUUUUCACUAUUUGACAAAGAUGGUGAUGGAACUAUAACAACAAAGGAAUUGGGAACUG; value = 0.319 ratio
Oligonucleotide = AAUGGAUUCAUAAAUGAAGACUUUAUAGUUUGGAUGCGUACUGCAGCAUUACCUACUUUUCGUAAGUUGUAUCGUCUCAUAGAGCGGAGAGAUGAUUUACACCCAACAUUACCAGCUGGA; value = 0.307 ratio
Oligonucleotide = AUUACAGACAUUAUCAGUGGGCUUGGCAGUAACAAAUGGAUCCAGCAGAAUCUCCAGUGCCUGGUGCUGAAUUCAUUAACUCUCUCCCUCGAGGAUCCUUACGAGCGCUGCUUCAGCCGG; value = 0.207 ratio
Oligonucleotide = CAUAAAGUUUGAUGUGCAGUUUCCUGAAAACAACUGGAUCAACCCAGACAAGCUUUCUGAACUAGAAGAUCUUCUGCCAUCUAGACCGGAAGUUCCUAACAUAAUUGGAGAAACAGAGGA; value = 0.163 ratio
Oligonucleotide = CUUAGAGAGCUUGAAGCUAAAGCCUACAAACAAAUUGAGGCCUGUGGUGGGAACCCUUCACUAGUGGCUUUAGUCAAGCACUUAAGUAAGAUGUUCACAGAAGAAAAUAAAUAAUACUAU; value = 0.799 ratio
Oligonucleotide = AGCUCAUCUAGCAAGGAGAAGAGUGAGACGGAAAAGGAAACUUCUUUGGUAAAACAAACAUUGGCUAAAAUGCAGCAGCAAGAGCAAAAGGAGCAGGCCCAGUGGACUCCUACUAAGUUU; value = 0.265 ratio
Oligonucleotide = GGUCUCUCCAAACUGACUAUAUAUUUAUUUGUUAUUUUAAAAAUACAACUAUAUUUUGGGUAGUUUUUUUUUUUUUUUUUUUGAUAAGUUGGUGUAAGGCUAUGUGACUUGAUCAAAACA; value = 1.32 ratio

Set 5
Target: ABI1, truncated, D143A, DHFR fusion (Arabidopsis thaliana)
Method: DHFR PCA, deep sequencing
Medium: yeast
Notes: methotrexate growth selection, single substitutions
With: (+)-ABA 0 µM
Relative to: wild-type fitted maximum
Reading: higher = stronger binding
Endpoint: relative binding score
Starting sequence: PYL1, truncated, DHFR fusion (Arabidopsis thaliana); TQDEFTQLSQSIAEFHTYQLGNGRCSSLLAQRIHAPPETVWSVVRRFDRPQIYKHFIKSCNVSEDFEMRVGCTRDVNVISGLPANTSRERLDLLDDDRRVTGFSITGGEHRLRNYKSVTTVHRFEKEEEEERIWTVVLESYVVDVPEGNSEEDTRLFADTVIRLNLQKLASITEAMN
Substitution = C72T; value = 6.38%
Substitution = V137M; value = 1.94%
Substitution = D144W; value = -10.1%
Substitution = R49M; value = 17.2%
Substitution = S59A; value = 13.1%
Substitution = F124W; value = 29.2%
Substitution = F47K; value = -2.46%
Substitution = S150Q; value = 9.44%
Substitution = E4H; value = 12.4%
Substitution = Y18F; value = 1.54%
Substitution = C60Q; value = 1.07%
Substitution = S117Q; value = 4.12%
Substitution = Y141L; value = -0.684%
Substitution = W41V; value = -0.311%
Substitution = D95W; value = -3.63%
Substitution = P50N; value = -3.2%
Substitution = R155H; value = -0.392%
Substitution = F15L; value = 2.5%
Substitution = L28D; value = -4.02%
Substitution = E125A; value = 40.8%
Substitution = S11E; value = 40%
Substitution = R69Y; value = 7.42%
Substitution = V76H; value = -9.19%
Substitution = E131N; value = 46.4%
Substitution = V43H; value = -6.57%
